Published values pooled from the literature.
Each line is one published result; not all experiments were run side by side. “And” joins repeats or separate records; there may be more than shown. Numbers after ± are the reported error.

O=C(CN1C(=O)C2(CCN(C(=O)c3ccc4[nH]ncc4n3)CC2)c2c(Br)cccc21)NCC(F)(F)F  half-life (male C57BL/6 mouse, plasma; intravenous, 2 mg/kg): 1.4 h
CC(=O)NCC(=O)N[C@@H](Cc1ccccc1)C(=O)N[C@@H](Cc1ccccc1)C(=O)N[C@@H](Cc1ccc(O)cc1)C(=O)NCC(=O)N[C@@H](Cc1ccc(O)cc1)C(=O)NCC(=O)N[C@@H](CO)C(=O)N[C@@H](CO)C(=O)N[C@@H](CO)C(=O)N[C@@H](CCCNC(=N)N)C(=O)N[C@@H](CCCNC(=N)N)C(=O)N[C@@H](C)C(=O)N1CCC[C@H]1C(=O)N[C@@H](CCC(N)=O)C(=O)N[C@H](C(=O)O)[C@@H](C)O  skin permeation (mouse skin; 24 h): 12.8 ± 1.9%
O=C(c1cc(Cc2n[nH]c(=O)c3ccccc23)ccc1F)N1CC(CNC2CC2)C1  haematocrit (Wistar Han rat, female, blood; oral, 60 mg/kg daily, 4 weeks): 31.5 ± 2.7%
CC(CCC(=O)NCC(=O)O)C1CCC2C3CCC4CC(OC5OC(C(=O)O)C(O)C(O)C5O)CCC4(C)C3CC(O)C12C (stereo not shown)  ratio of metabolic ratios (refers to: glucuronide to parent ratio; women, plasma; dose not given; baseline: C/C over T/T): 7.29
[Ga+3].[O-]c1ccc(Br)c2cccnc12.[O-]c1ccc(Br)c2cccnc12.[O-]c1ccc(Br)c2cccnc12  partition coefficient (oil/water; pH 7.4): 35.6
CSCC[C@H](NC(=O)[C@@H](NC(=O)[C@H](CC(C)C)NC(=O)[C@@H](NC(=O)[C@H](Cc1c[nH]cn1)NC(=O)CCCCCNC(=O)[C@H](CCCNC(=N)N)NC(=O)[C@H](CCCNC(=N)N)NC(=O)[C@H](CCCNC(=N)N)NC(=O)[C@H](CCC(N)=O)NC(=O)[C@H](CCCNC(=N)N)NC(=O)[C@H](CCCNC(=N)N)NC(=O)[C@H](CCCCN)NC(=O)[C@H](CCCCN)NC(=O)[C@H](CCCNC(=N)N)NC(=O)CNC(=O)[C@@H](N)Cc1ccc(O)cc1)C(C)C)C(C)C)C(=O)N[C@@H](CS)C(=O)N[C@@H](C)C(=O)N[C@H](C(N)=O)[C@@H](C)O  serum Potassium (C57BL/6J mice; Alzet osmotic pump, 3 mg/kg, 8 weeks): 4.9 g/dL and 4.8 g/dL and 4.4 g/dL
COc1ccc(CNc2ccc3c(c2)S(=O)(=O)C=C3)cc1  platelet distribution width (male C57BL/6 mice, blood; intraperitoneal, 5 mg/kg, day 8, group average): 14.5%
CC[C@H](C)[C@H](NC(=O)[C@H](C)NC(=O)CNC(=O)[C@H](CCCCN)NC(=O)[C@@H](NC(=O)[C@H](CC(C)C)NC(=O)[C@H](C)NC(=O)CNC(=O)[C@H](CC(C)C)NC(=O)[C@@H](N)Cc1ccccc1)[C@@H](C)CC)C(=O)N[C@@H](Cc1c[nH]cn1)C(=O)NCC(=O)NCC(=O)N[C@@H](CCCNC(=N)N)C(=O)N[C@@H](Cc1ccccc1)C(=O)N[C@H](C(=O)N[C@@H](Cc1c[nH]cn1)C(=O)NCC(=O)N[C@@H](CCSC)C(=O)N[C@H](C(=O)N[C@@H](CCC(N)=O)C(=O)N[C@@H](CC(N)=O)C(=O)N[C@@H](Cc1c[nH]cn1)C(=O)N[C@@H](Cc1c[nH]cn1)C(N)=O)[C@@H](C)CC)[C@@H](C)CC  acute toxic concentration (zebrafish embryos 4 hpf, E3 medium; 1 h): 5 µM
CC(C)[C@@H]1NC(=O)CNC(=O)[C@H](CC(N)=O)NC(=O)[C@H](CCCNC(=N)N)NC(=O)[C@H](Cc2ccc(O)cc2)NC(=O)[C@H](C(C)C)NC(=O)[C@@H](NC(=O)[C@@H](NC(=O)[C@H](CC(N)=O)NC(=O)[C@H](Cc2c[nH]c3ccccc23)NC(=O)[C@H](C)NC(=O)[C@H](Cc2ccccc2)NC(=O)CNC(=O)[C@H](CCCCN)NC(=O)[C@H](Cc2ccccc2)NC(=O)[C@H](Cc2ccccc2)NC(=O)[C@H](CCCCN)NC(=O)OCC2c3ccccc3-c3ccccc32)C(C)C)CSSC[C@@H](C(=O)N[C@@H](Cc2c[nH]cn2)C(=O)N[C@@H](CCCNC(=N)N)C(=O)N[C@@H](CCCNC(=N)N)C(=O)N[C@@H](C)C(=O)N[C@@H](CC(N)=O)C(N)=O)NC(=O)[C@H](C(C)C)NC(=O)[C@H](CCCNC(=N)N)NC1=O  AST/ALT ratio (ICR mouse, blood; intramammary, 10 mg/kg, day 5, 3 d dosing): 0.58 ± 0.03
CC[C@H](C)[C@H](NC(=O)[C@H](CCCCN)NC(=O)CNC(=O)[C@H](CC(C)C)NC(=O)[C@H](Cc1ccccc1)NC(=O)[C@H](CCCCN)NC(=O)[C@H](CO)NC(=O)[C@H](Cc1ccccc1)NC(=O)[C@H](Cc1c[nH]c2ccccc12)NC(=O)[C@H](CCC(N)=O)NC(=O)[C@@H](NC(=O)[C@H](Cc1ccccc1)NC(=O)CCCCCNC(=O)CN1CCN(CC(=O)O)CCN(CC(=O)O)CCN(CC(=O)O)CC1)C(C)C)C(=O)N[C@@H](CCC(=O)O)C(=O)N1CCC[C@H]1C(=O)N[C@@H](CC(=O)O)C(=O)N[C@H](C(=O)N[C@@H](CO)C(=O)N[C@@H](CCC(N)=O)C(=O)N[C@H](C(=O)N[C@@H](CCC(N)=O)C(=O)N[C@@H](CC(=O)O)C(=O)N1CCC[C@H]1C(=O)N[C@@H](CC(N)=O)C(=O)N[C@@H](CC(=O)O)C(=O)N[C@@H](CCC(N)=O)C(=O)N[C@@H](Cc1ccc(O)cc1)C(=O)N[C@@H](CCC(=O)O)C(=O)N1CCC[C@H]1C(=O)N[C@@H](Cc1ccccc1)C(=O)O)C(C)C)C(C)C [copper-64 labelled]  SUVmean (dynamic PET; mouse both sexes, CT26 tumour, checkpoint inhibitor-treated, tumour; intravenous, 100 µCi/mouse, 750 s): 3.21 SUV
CSCC[C@H](NC(=O)CNC(=O)[C@H](CCCCN)NC(=O)[C@H](CC(C)C)NC(=O)[C@@H]1CCCN1C(=O)[C@H](CO)NC(=O)[C@H](Cc1c[nH]cn1)NC(=O)[C@H](Cc1c[nH]c2ccccc12)NC(=O)[C@H](CCCNC(=N)N)NC(=O)[C@H](CC(C)C)NC(=O)[C@H](CCCNC(=N)N)NC(=O)[C@H](Cc1c[nH]c2ccccc12)NC(=O)[C@H](CS)NC(=O)CCCCCNC(=O)CN1CCN(CC(=O)O)CCN(CC(=O)O)CCN(CC(=O)O)CC1)C(=O)O [copper-64 labelled]  tissue uptake (C57BL/6J mice, B16-F10 tumour, brain; intravenous, 1.85 MBq, 0.5 h): 0.22 %ID/g
O=C1NC2(CC2)COc2ncc(F)cc2[C@H]2COCCN2c2ccn3ncc1c3n2  total cholesterol (Sprague-Dawley rat, female, serum; oral, 20 mg/kg/day, 4 weeks daily, end of recovery period): 1.8 ± 0.26 mmol/L
CCCCCCCCCCCCCCCC(=O)N[C@@H](CCC(=O)NCCOCCOCCC(=O)NCCOCCOCCC(=O)NCCCC[C@H](NC(=O)[C@H](CC(=O)O)NC(=O)[C@H](CC(C)C)NC(=O)[C@H](Cc1ccc(O)cc1)NC(=O)[C@H](CCCCN)NC(=O)[C@H](CO)NC(=O)[C@H](Cc1ccc(O)cc1)NC(=O)[C@H](CC(=O)O)NC(=O)[C@H](CO)NC(=O)[C@@H](NC(=O)[C@H](Cc1ccccc1)NC(=O)[C@@H](NC(=O)CNC(=O)[C@H](CCC(N)=O)NC(=O)[C@@H](CO)NC(=O)[C@@H](N)Cc1c[nH]cn1)[C@@H](C)O)[C@@H](C)O)C(=O)N[C@@H](CCCNC(=N)N)C(=O)N[C@@H](CCCNC(=N)N)C(=O)N[C@@H](C)C(=O)N[C@@H](CCC(N)=O)C(=O)N[C@@H](CC(=O)O)C(=O)N[C@@H](Cc1ccccc1)C(=O)N[C@H](C(=O)N[C@@H](CCC(N)=O)C(=O)N[C@@H](Cc1c[nH]c2ccccc12)C(=O)N[C@@H](CC(C)C)C(=O)N[C@@H](CC(C)C)C(=O)N[C@@H](CC(N)=O)C(=O)N[C@H](C(=O)NCC(=O)NCC(=O)N1CCC[C@H]1C(=O)N[C@@H](CO)C(=O)N[C@@H](CO)C(=O)NCC(=O)N[C@@H](C)C(=O)N1CCC[C@H]1C(=O)N1CCC[C@H]1C(=O)N1CCC[C@H]1C(=O)N[C@@H](CO)C(N)=O)[C@@H](C)O)C(C)C)C(=O)O  MRT (rhesus monkey, both sexes, plasma; subcutaneous, 20 µg/kg, multiple doses, day 7): 4.72 ± 0.386 h
